# Published values pooled from the literature.
# Numbered parts are unrelated; each lists some results of a single study.

# Block 1 — method: protein binding microarray; form: double-stranded DNA, one strand shown; matrix: in vitro; concentration: not given; reference: not given; reading: higher = stronger binding
# Target: Histone acetyltransferase KAT6A, winged helix 1, GST fusion (KAT6A, Homo sapiens, UniProt Q92794, residues 1-85)
# Notes: 8-mer, flanks averaged, mean of 2 arrays, mostly near background
# Target sequence (chain): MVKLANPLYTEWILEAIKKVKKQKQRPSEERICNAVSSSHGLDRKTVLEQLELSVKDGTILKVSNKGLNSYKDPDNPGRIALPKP
Sequence,E-score
CCACCCCA,-0.286
TACCTTAA,0.0228
GGATAATA,-0.0864
AAACTTCG,-0.128

# Block 2 — method: protein-binding microarray; form: double-stranded DNA, one strand shown; matrix: in vitro; concentration: 250 nM; notes: 60-bp whole probe; together with: salmon DNA 0.4 mg/ml; reference: random background probes; reading: higher = stronger binding; all sequences stand within: GCCTAGCAC … GTCTTGATTCGCTTGACGCTGCTG
# Target: Interferon regulatory factor 5, full length, phosphomimetic (IRF5, Homo sapiens, UniProt Q13568-2, residues 1-514, K96S/S451D/S453D/S456D/S462D)
Sequence,log fluorescence [z-score]
ACAAGTTTCTCCTTTGTAAAGTGCTAG,2.86
TTAGGTTTCGGATCCGGTTAGTGCTAG,6.72
TTAGATATCGAGTATCGATTAGTGCTA,6.83
TTAGGACTGGGGTATCGGTTCGTGCTA,1.49
AAGTTTATACCTTAGGTTTTGTGCTAG,0.112

# Block 3 — method: RNA Bind-n-Seq; form: RNA; matrix: in vitro; concentration: not given; reference: input RNA pool; reading: higher = stronger binding
# Target: RING finger protein unkempt homolog, zinc fingers 1-6, GST-SBP tag (UNK, Homo sapiens, UniProt Q9C0B0, residues 30-357)
# Sequence of UniProt Q9C0B0 (30-357, looked up): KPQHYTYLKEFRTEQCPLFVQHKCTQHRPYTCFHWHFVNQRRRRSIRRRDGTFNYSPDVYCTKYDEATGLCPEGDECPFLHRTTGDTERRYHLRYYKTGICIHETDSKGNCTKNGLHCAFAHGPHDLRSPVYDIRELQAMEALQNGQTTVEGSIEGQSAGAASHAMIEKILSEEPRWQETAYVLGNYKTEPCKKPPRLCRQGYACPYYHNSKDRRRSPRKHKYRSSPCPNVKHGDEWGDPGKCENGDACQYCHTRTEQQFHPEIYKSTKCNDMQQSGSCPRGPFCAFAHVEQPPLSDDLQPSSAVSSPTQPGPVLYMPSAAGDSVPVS
# Notes: RNA with constant flanks, human and mouse sites, ends assumed
# All sequences stand within: GGGAGUUCUACAGUCCGACGAUC … CAACAGAGGAUUGAGCAUCA
Sequence,bound/input enrichment
UUACACAUUUGGUGAGCAGGGCAGCAUUUCCUUCUCCCACUGCUGCUGAGAUGGCAGAAAUUAGUCGAAUUCAGUACGAAAUGGAAUAUACUGAAGGCAUUAGUCAGCGAAUGAGGGUCC,6.36 ratio
AGCAUUUUCCCCUGUUACCUUUAUAUUACACAAUCUGUUCUAUGGUAACAAUACAGAGGAGCGAGCUAGUUUACUGCACCAGUGUUAAUAGGAAAUUUCAGUAUAUCAUGAACAAAUCGA,1.06 ratio
CACAUGCUGCCUGGCCAGAACCAGUUCUUGCUGCCAGGCACCCCAGCCGUACAACUCCCUCAGUCACUCUCUGCACUGCCUGCCAACGUGGGAGGCCAGAUCCUCACAGCUGCAGCACCA,0.103 ratio
UUGGCAAAGCAUCCAGAGAAGCUGGCUACUGUCCUUUCUGGGGCGUGUGAUGGAGAGGUUAGAAUUUGGAAUCUAACUCAGCGGAAUUGUAUCCGUACAAUACAAGCACAUGAAGGCUUU,0.203 ratio
GACAGGGUAGGUGAUAUCCAUAUUUUGGAAGUCACAAAUAACCUAGAGCAUAAGUCCACUUUUAGUAUUUCGAAUUUUCUUAACAAGAGCAGAGGAAAUAACUUUACUGCAAAUCAGAAC,2.51 ratio

# Further values, each from its own experiment
Molecule,target,assay,system,setting,how to read,endpoint,result
"PhoQ, residues 284 288 289 292 302 303 TSTLRA","PhoP, residues 12 14 15 18 19 GQALL (Escherichia coli, UniProt P23836)","Sort-seq, measured: YFP reporter",E. coli,"PhoQ-PhoP variant library, together with: 10 µM Mg2+","reference: high Mg2+ state, higher = stronger signaling",fold induction,3.24

# For quick reference, copied from above (block 1):
Sequence,E-score
TACCTTAA,0.0228
